Literature values as cited in several papers.
Compare with care: the assays were run in different laboratories. Numbers after ± are the reported error.

Compound | target | test | system | setting | IC50
COc1ccc(C(=O)NC2CCN(c3nccc(Nc4ccc(F)cc4)n3)CC2)cc1 | CDK2 | enzyme activity, inhibitor | – | – | 54.3 nM
COc1cnc(COc2ccc(F)c(F)c2)cc1-c1cc2c([nH]1)CCNC2=O | casein kinase 1 delta | enzyme activity, inhibitor | – | – | 40 nM
COc1ccc2nc3cc(Cl)ccc3c(NCCCCNc3nc(N)nc(N)n3)c2c1 | MBNL1–CUG repeat RNA complex | complex formation, inhibitor | – | – | 43000 nM
Cc1ccc(S(=O)(=O)Nc2ccc(-c3ccnc(Nc4ccc(S(=O)(=O)Nc5ncccn5)cc4)c3C#N)cc2)cc1 | CDK2 | enzyme activity, inhibitor | – | – | 1790 nM
Cc1c(C(=O)O)ccc2c1NC(c1cccc(C(F)(F)F)c1)[C@H]1CC=C[C@@H]21 (stereo partly shown) | GroEL/GroES | protein refolding | – | – | < 10000 nM
COc1ccc(N2CCN(C(=O)ON3C(=O)C4CN(CC5CCN(Cc6ccccc6)CC5)CCN4C3=O)CC2)cc1 (stereo not shown) | PPT1, recombinant | enzyme activity, inhibitor | – | – | 100 nM
c1ccc2cc(-c3noc(C4CCNCC4)n3)ccc2c1 | farnesoid X receptor | antagonist | – | – | 580 nM
Cc1cc(C(=O)N[C@H](C(=O)N[C@@H](Cc2ccc(F)cc2)C(=O)N[C@H](/C=C/C(=O)OCc2ccnc3ccccc23)CCC(N)=O)C(C)C)no1 | coxsackievirus B3 3C protease | inhibitor | – | – | 130 nM
COc1ccc(S(=O)(=O)n2nc(OC(=O)c3ccccc3)cc2N)cc1 | West Nile virus NS2B-NS3 protease | enzyme activity, inhibitor | – | 23 | 105 nM
OC1CCCC1n1cc(-c2cnn3ccc(N4CCC[C@@H]4c4cc(F)ccc4F)nc23)cn1 (stereo partly shown) | TRKA G595R | inhibitor | – | – | 1.02 nM
Cc1nn(-c2ccc(S(N)(=O)=O)cc2)c(C)c1-c1nnc(SCC(=NO)c2ccccc2)n1-c1ccccc1 | cyclooxygenase-2 | inhibitor | – | – | 910 nM
COc1cc(COc2ccc3c(C)cc(=O)oc3c2)cc(OC)c1OC | Plasmodium falciparum ENT1 | [3H]adenosine uptake | PfENT1-expressing yeast | – | 2.4 ± 1.5 nM
C[C@H](N)[C@H]1O[C@@H](O[C@@H]2[C@@H](O)[C@H](N)C[C@H](N)[C@H]2O[C@H]2O[C@H]([C@@H](C)O)[C@@H](O)[C@H](O)[C@H]2N)[C@H](O)[C@@H]1O | Escherichia coli ribosome | translation, inhibitor, item: firefly luciferase | Escherichia coli S30 lysate | – | 1100 ± 200 nM
Nc1nc(Nc2ccccc2)sc1C(=O)c1ccccc1 | CDK2 | enzyme activity, inhibitor | – | – | 930 nM
CC[C@@H]1NC(=O)CNC(=O)[C@H](Cc2c[nH]c3ccccc23)NC(=O)[C@H](CC(=O)O)NC(=O)[C@H](CCC(N)=O)NC(=O)[C@H](Cc2c[nH]c3ccccc23)NC(=O)[C@H](C(C)C)NC(=O)[C@@H](NC(=O)[C@@H](NC(C)=O)[C@@H](C)CC)CSSC[C@@H](C(=O)N[C@H](C(N)=O)[C@@H](C)O)NC(=O)[C@H](CCCNC(=N)N)NC(=O)[C@H](Cc2c[nH]cn2)NC1=O | complement classical pathway | ELISA | – | – | 1500 nM
CCC[C@@H]1N[C@@H](CO)[C@@H](O)[C@H](O)[C@H]1O | Escherichia coli beta-glucuronidase | enzyme activity | – | – | 586000 nM
N#Cc1ccc(-c2csc(N3N=C(c4ccc(N5CCOCC5)cc4)CC3c3ccc(Cl)cc3)n2)cc1 (stereo not shown) | HER2 | inhibitor | – | – | 2300 nM
O=C(NO)c1ccc(NC(=O)[C@@H](NC(=O)c2ccccc2)c2ccccc2)cc1 | HDAC | enzyme activity | HeLa nuclear extract | – | 28.7 nM
CCc1ccccc1NC(=O)CSc1nnc(C2CCN(C(=O)Nc3ccccc3)CC2)o1 | 15-lipoxygenase | inhibitor | – | – | 7150 ± 260 nM
CCCCCCCCCCCCCC(=O)N[C@@H](CO)C(=O)N[C@H](C(=O)N[C@@H](Cc1ccc(O)cc1)C(=O)N[C@@H](CCCNC(=N)N)C(=O)N[C@@H](CCCNC(=N)N)C(=O)NCC(=O)N[C@@H](C)C(=O)N[C@@H](CCCNC(=N)N)C(=O)N[C@@H](CCCNC(=N)N)C(=O)N[C@@H](Cc1c[nH]c2ccccc12)C(=O)N[C@@H](CCCNC(=N)N)C(=O)N[C@@H](CCCCN)C(=O)N[C@@H](CC(C)C)C(=O)O)[C@@H](C)CC | PKMζ | AMPA receptor response potentiation, inhibitor, bath application | hippocampal slice CA1 pyramidal cells | – | ~1000 nM
COc1ccc(CC(=O)Nc2cccc(-c3nc4ccccc4o3)c2)cc1 | P2Y14 receptor | antagonist | – | – | 2 nM
N#Cc1ccc(-c2csc(N3N=C(c4ccc(N5CCOCC5)cc4)CC3c3ccc(Cl)cc3)n2)cc1 (stereo not shown) | HER2 | – | – | – | 2280 nM
COc1cncc(-c2cccc([C@]3(C)CC(=O)N(C)C(N)=N3)c2)c1 | BACE1 | inhibitor | – | – | 80 nM
O=CN1N=C(c2cccnc2)CC1c1c(-c2ccccc2)[nH]c2ccccc12 (stereo not shown) | 15-lipoxygenase-1 | enzyme activity, inhibitor | – | – | 3840 nM
CCc1ccc(Cn2cc(-c3cc(-c4ccc(Br)cc4)nc(N)n3)c3ccccc32)cc1 | EGFR L858R human | inhibitor | – | – | 99 nM

Compound | target | test | system | setting | IC50
CCCCCCCCCc1nc2ccccc2c(=O)n1CCN | PqsR, Pseudomonas aeruginosa | inhibitor | – | – | 9300 nM
CSc1nc(-c2ccc(F)cc2)c(-c2ccnc(Nc3ccc(N)cc3)c2)[nH]1 | JNK3 | inhibitor | – | – | 24 nM
Cc1cc(CN2CCN(c3c(Br)cnc4[nH]c(-c5ccc(N6CCN(C)CC6)cc5)nc34)CC2)no1 | Aurora C kinase | inhibitor | – | – | 19 nM
O=C(Nc1ccc(Cl)c(-c2nc3ncccc3o2)c1)c1cccs1 | Plasmodium falciparum ENT1 | [3H]adenosine uptake | PfENT1-expressing yeast | – | 38.4 ± 16.5 nM
CCc1ccc(CCNC(=O)c2c(O)c(O)cc3c(O)c(-c4c(C)cc5c(C(=O)NCCc6ccc(CC)cc6)c(O)c(O)cc5c4O)c(C)cc23)cc1 | Bcl-xL (human) | binding, fluorescence polarization | – | added: fluorescent BH3 Bid peptide | ~1000 nM
CCCC[C@H]1C(=O)N(C)[C@@H](CCCC)C(=O)N[C@@H](CCCNC(=N)N)C(=O)N[C@H](C(=O)NCC(N)=O)CSCC(=O)N[C@@H](Cc2ccccc2)C(=O)N(C)[C@@H](C)C(=O)N[C@@H](CC(N)=O)C(=O)N2CCC[C@H]2C(=O)N[C@@H](Cc2c[nH]cn2)C(=O)N[C@@H](CC(C)C)C(=O)N(C)CC(=O)N[C@@H](Cc2c[nH]c3ccccc23)C(=O)N[C@@H](CO)C(=O)N[C@@H](Cc2c[nH]c3ccccc23)C(=O)N1C | PD-L1 | – | – | literature value | 146 nM
Cc1ccc2nc(SCc3cn(-c4cccc(C(=O)O)c4)nn3)n(Cc3ccccc3)c(=O)c2c1 | Hsp90 | inhibitor | – | – | 25.1 nM
CCOc1ccc(Cc2cc(C3OC(SC)C(O)C(O)C3OC3OC(C(=O)O)C(O)C(O)C3O)ccc2Cl)cc1 (stereo not shown) | SGLT1 | – | – | – | > 10000 nM
CC(C)(Sc1nc2ncccc2n1Cc1ccc(Br)c2ccccc12)C(=O)O | URAT1 | inhibitor | – | – | 1360 nM
CC(C)C[C@@H](CN[C@H](Cc1ccccc1)C(N)=O)NC(=O)[C@H](Cc1c[nH]cn1)NC(=O)CNC(=O)[C@@H](NC(=O)[C@H](C)NC(=O)[C@H](Cc1c[nH]c2ccccc12)NC(=O)[C@H](CCC(N)=O)NC(=O)[C@H](N)Cc1ccccc1)C(C)C | mouse GRP receptor | binding | – | literature species comparison | 12.5 ± 1.8 nM
Nc1cc(COc2c(Cl)cc(C[C@H](N)C(=O)O)cc2Cl)c2oc(-c3ccccc3)nc2c1 | LAT1 human | L-leucine uptake | HT-29 | added: [14C]-L-leucine | 60 nM
OC[C@H]1O[C@@H](OCc2cn([C@H]3[C@H](O)[C@@H](O)[C@H](c4cn([C@H]5[C@H](O)[C@@H](O)[C@H](n6cc([C@@H]7O[C@H](CO)[C@@H](n8cc(CO[C@@H]9O[C@H](CO)[C@H](O)[C@H](O)[C@H]9O)nn8)[C@H](O)[C@H]7O)nn6)O[C@@H]5CO)nn4)O[C@@H]3CO)nn2)[C@H](O)[C@@H](O)[C@H]1O | LecA (Pseudomonas aeruginosa) | ELISA | – | – | 2.7 nM
O=C(O)CCCc1ccccc1 | HDAC6 | – | – | – | 240000 nM
Cc1ccc(C(=O)[C@]23C(=O)OC(=O)[C@@]2(C)N(C)[C@@]2(c4ccccc4)Sc4ccccc4[C@@H]32)cc1 | Leishmania mexicana cysteine protease | inhibitor | – | – | 3700 nM
CCOC(=O)c1csc(NC(=S)Nc2ccc(Oc3ccccc3)cc2)n1 | DHFR | enzyme activity, inhibitor | – | – | 50 nM
NS(=O)(=O)Oc1ccc2c3c(c(=O)oc2c1)CCCC3 | steroid sulfatase | – | placental microsomes | – | 70 nM
O=C(Nc1cccc(-c2nc3ncccc3o2)c1)c1cccc(F)c1 | Plasmodium falciparum ENT1 | [3H]adenosine uptake | PfENT1-expressing yeast | – | 9.6 ± 7.4 nM
CCOC(=O)c1cc(NC(=O)c2ccc(C)cc2)n(Cc2ccc(F)cc2)n1 | P2Y14 receptor | antagonist | – | – | 640 nM
Cc1cc(C)c(S(=O)(=O)N(C)CC(=O)N(Cc2ccc(C3CCCCC3)cc2)c2ccc(C(=O)O)c(O)c2)c(C)c1 | STAT5 | tyrosine phosphorylation, inhibitor | whole cells | – | ~20000 nM
Cc1cc(C)c(CNC(=O)c2c(O)c(O)cc3c(O)c(-c4c(C)cc5c(C(=O)NCc6c(C)cc(C)cc6C)c(O)c(O)cc5c4O)c(C)cc23)c(C)c1 | Mcl-1 (human) | binding, fluorescence polarization | – | added: fluorescent BH3 Bid peptide | ~1000 nM
COc1ccc(C(=O)N2CCC(CN3CCC(O)(c4ccccc4)CC3)C(c3ccc4ccccc4c3)C2)c(OC)c1 (stereo not shown) | PilF | inhibitor | – | – | 175000 nM
C=C1C(=O)N[C@@H](C)C(=O)N(C)[C@@H](C)C(=O)N[C@@H]([C@H](OC(=O)[C@@H](NC(C)=O)[C@H](O)C(C)C)C(C)C)C(=O)N(C)[C@@H]([C@@H](C)OC)C(=O)O[C@H](C)[C@H](NC(C)=O)C(=O)O[C@H](Cc2ccccc2)C(=O)N1C | Gαq/11 | inhibitor | CHO M1 receptor expressing | – | 95 nM
N/N=C1\CCCc2nc3n[nH]c(O)c3cc21 | c-Met kinase | inhibitor | – | – | 0.39 nM
Cc1nn(-c2ccc(F)cc2)c2ncnc(Nc3ccc(F)c(Cl)c3)c12 | HER2 | – | – | – | 250 nM

For quick reference, copied from above:
Compound | target | test | system | setting | IC50
COc1ccc(C(=O)N2CCC(CN3CCC(O)(c4ccccc4)CC3)C(c3ccc4ccccc4c3)C2)c(OC)c1 (stereo not shown) | PilF | inhibitor | – | – | 175000 nM
Cc1nn(-c2ccc(F)cc2)c2ncnc(Nc3ccc(F)c(Cl)c3)c12 | HER2 | – | – | – | 250 nM
O=CN1N=C(c2cccnc2)CC1c1c(-c2ccccc2)[nH]c2ccccc12 (stereo not shown) | 15-lipoxygenase-1 | enzyme activity, inhibitor | – | – | 3840 nM
OC[C@H]1O[C@@H](OCc2cn([C@H]3[C@H](O)[C@@H](O)[C@H](c4cn([C@H]5[C@H](O)[C@@H](O)[C@H](n6cc([C@@H]7O[C@H](CO)[C@@H](n8cc(CO[C@@H]9O[C@H](CO)[C@H](O)[C@H](O)[C@H]9O)nn8)[C@H](O)[C@H]7O)nn6)O[C@@H]5CO)nn4)O[C@@H]3CO)nn2)[C@H](O)[C@@H](O)[C@H]1O | LecA (Pseudomonas aeruginosa) | ELISA | – | – | 2.7 nM
